Published values from different studies.
Each line is one published result; not all experiments were run side by side. Numbers after ± are the reported error. Converted amounts (≈) assume the structure as drawn.

Structure (SMILES) = COC[C@@H](CC(C)C)NC(=O)c1ccc(C)c(C)c1; system = Hsd:ICR (CD-1) mouse, male, bone marrow; conditions = oral, 1352 mg/kg, 24 h; quantity = PCE to total erythrocyte ratio; value = 0.51
Structure (SMILES) = NCCCC[C@@H]1NC(=O)[C@@H](Cc2c[nH]c3ccccc23)NC(=O)[C@H](c2ccccc2)NC(=O)[C@@H]2C[C@@H](OC(=O)NCCN)CN2C(=O)[C@H](Cc2ccccc2)NC(=O)[C@H](Cc2ccc(OCc3ccccc3)cc2)NC1=O; system = healthy volunteers, female; conditions = 1950 µg twice daily, 4.0 h, post hoc; quantity = placebo-corrected QTcF change; value = 9 ms
Structure (SMILES) = CN1CC[C@@H](c2c(O)cc(O)c3c(=O)cc(-c4ccc(C(F)(F)F)cc4Cl)oc23)[C@@H]1CO; assay = refers to: Epistaxis; system = AML; conditions = oral, 200 mg, intermittent dosing; quantity = patients with adverse event; value = 20%
Structure (SMILES) = CC(=O)c1c(C)c2cnc(Nc3ccc(C4CCN(CCS(C)(=O)=O)CC4)cn3)nc2n(C2CCCC2)c1=O; system = beagle dog, male, plasma; conditions = oral, 6 mg/kg, day 28, repeated dosing 4 weeks; quantity = AUC(0-t); value = 555 ng·h/mL
Structure (SMILES) = COc1ncccc1-c1cnn2ccc(N3CCN(C(=O)OC(C)C)CC3)nc12; system = mouse nerve ligation model, plasma; conditions = oral, 10 mg/kg, 30 min after last dose, repeat dosing day 5; quantity = drug concentration; value = 3000 nM
Structure (SMILES) = CC(C)CC(=O)OC[C@H]1O[C@@](C#N)(c2ccc3c(N)ncnn23)[C@H](O)[C@@H]1O; system = rat whole blood; conditions = 5 µM, 30 min; quantity = remaining compound; value = 0%
Structure (SMILES) = Cc1cccc(Cn2nc(C3CC3)c3c(NC(=O)c4cnc5cc(OCCN6CCN(C)CC6)ccn45)cccc32)n1; assay = CTCAE v4.03, refers to: ALT increased; system = pancreatic ductal adenocarcinoma patients; conditions = oral, dose not given, with: pembrolizumab IV every 3 weeks; quantity = all-cause adverse events; value = 18.5%
Structure (SMILES) = C[C@@H]1NC(=O)[C@H](CCCCNC(=O)CO/N=C/C(=O)NCCCC[C@@H]2NC(=O)[C@@H](Cc3ccccc3)NC(=O)[C@H](CC(=O)O)NC(=O)CNC(=O)[C@H](CCCNC(=N)N)NC2=O)NC(=O)CNC(=O)[C@@H]2CCCN2C(=O)[C@H](CCCCNC(=O)CO/N=C/C(=O)NCCCC[C@@H]2NC(=O)[C@@H](Cc3ccccc3)NC(=O)[C@H](CC(=O)O)NC(=O)CNC(=O)[C@H](CCCNC(=N)N)NC2=O)NC(=O)[C@H](CCCCNC(=O)CN2CCCNCCNCCCNCC2)NC(=O)[C@H](CCCCNC(=O)CO/N=C/C(=O)NCCCC[C@@H]2NC(=O)[C@@H](Cc3ccccc3)NC(=O)[C@H](CC(=O)O)NC(=O)CNC(=O)[C@H](CCCNC(=N)N)NC2=O)NC(=O)CNC(=O)[C@@H]2CCCN2C(=O)[C@H](CCCCNC(=O)CO/N=C/C(=O)NCCCC[C@@H]2NC(=O)[C@@H](Cc3ccccc3)NC(=O)[C@H](CC(=O)O)NC(=O)CNC(=O)[C@H](CCCNC(=N)N)NC2=O)NC1=O [copper-64 labelled]; assay = PET imaging; system = mouse, U-87 MG tumour xenograft, liver; conditions = intravenous, 24 h; quantity = tissue uptake; value = 3.08 ± 0.23 %ID/g
Structure (SMILES) = CO[C@H]1C[C@@H]2CC[C@@H](C)[C@@](O)(O2)C(=O)C(=O)N2CCCC[C@H]2C(=O)O[C@H]([C@H](C)C[C@@H]2CC[C@@H](OC(=O)NCCOCCOCCOCCOCCOCCOCCOCCOCCC(=O)N3CCc4cc(Cn5nc(-c6ccc7oc(N)nc7c6)c6c(N)ncnc65)ccc4C3)[C@H](OC)C2)C[C@@H](O)[C@H](C)/C=C(\C)[C@@H](O)[C@@H](OC)C(=O)[C@H](C)C[C@H](C)/C=C/C=C/C=C/1C; assay = phase 1 dose escalation; system = advanced solid tumour patients; conditions = intravenous, 6 mg weekly, any grade; quantity = any TRAE incidence; value = 91.7%
Structure (SMILES) = COc1ccc2nc3cc(Cl)ccc3c(Nc3cc(CN4CCCC4)c(O)c(CN4CCCC4)c3)c2n1; system = mouse, blood; conditions = intraperitoneal, 57 mg/kg; quantity = white blood cell count; value = 7.66 10⁹/L
Structure (SMILES) = CCOC(=O)C(CC)(CCCSC)NC(=O)c1ccc(C2CC2)c(Cc2ccc(F)cc2)n1 (stereo not shown); system = aqueous buffer with DMSO; quantity = kinetic solubility; value = 2.9 µg/mL (≈ 6.14 µM)
Structure (SMILES) = CCN1[C@@H](C(=O)NC23CCC(C(=O)O)(CC2)CC3)[C@H](c2cccc(Cl)c2F)[C@]2(C(=O)Nc3cc(Cl)ccc32)C12CCCCC2; system = patients with advanced solid tumours; conditions = oral, 200 mg; quantity = nausea/vomiting incidence; value = 100%
Structure (SMILES) = CCc1ccc(CC/C=C/c2ccc3c(c2)C(=O)CC3)cc1; system = Sprague-Dawley rat, female; conditions = oral, 120 mg/kg/day, 14 days; quantity = Phosphorus; value = 2.41 mM

Some of these lines once more:
Structure (SMILES) = CN1CC[C@@H](c2c(O)cc(O)c3c(=O)cc(-c4ccc(C(F)(F)F)cc4Cl)oc23)[C@@H]1CO; assay = refers to: Epistaxis; system = AML; conditions = oral, 200 mg, intermittent dosing; quantity = patients with adverse event; value = 20%
